Earlier results that unrelated publications cite.
Compare with care: the assays were run in different laboratories. ± marks the error that the study gave.

For CCC1=C(O)c2c(oc(-c3cccc4ccccc34)cc2=O)C(CC)(CC)C1=O, the IC50 was 1.03 µM (HCT-8; cell growth, SRB).
The IC50 of O=C1C(=Cc2ccc(Br)cc2)CCCC12C1CCCN1C1(C(=O)Nc3ccccc31)C2c1ccc(Br)cc1 (centres unmarked) is reported as 15.49 ± 0.04 µM (breast cancer cell lines; cell growth).
CC1=C(C)C(=O)OC(C(C)(O)C2CCC3C4CC5OC56C(O)C=CC(=O)C6(C)C4CCC32C)C1 (centres unmarked) gave an IC50 of 0.45 µM (Hep G2; cell growth).
Cc1cc2c(c(=O)o1)C(c1ccc(-n3cncn3)cc1)C(C#N)=C(N)O2 (centres unmarked) has an IC50 of 7.58 ± 1.01 µM (HCT-116; cell growth).
O=C1OCC2=C1C(c1ccccc1[N+](=O)[O-])C1=C(N2)C(=O)c2ccccc2C1=O (centres unmarked) gave an IC50 of 1.86 ± 0.02 µM (KB cells; cell growth).
With CC1=C(CO)C(=O)O[C@@H]([C@@H](C)[C@H]2CC[C@H]3[C@@H]4C[C@H]5O[C@]56[C@@H](O)C=CC(=O)[C@]6(C)[C@H]4CC[C@]23C)C1 the IC50 was 0.11 µM (MCF7/BUS).
CC(=O)c1ccc(Oc2cc(-c3ccco3)nc3ccccc23)cc1 gave an IC50 of 7.5 µM (activated neutrophils; beta-glucuronidase release).
Cc1ccc(C(C)C)cc1.F[B-](F)(F)F.[Cl][Ru+].[Fe+2].c1cc[cH-]c1.c1ccc(P(c2ccccc2)N([c-]2cccc2)P(c2ccccc2)c2ccccc2)cc1 has an IC50 of 3.1 µM (A2780R platinum-resistant ovarian cancer; cell growth).
CCC1=C(O)c2c(oc(-c3cc4ccccc4s3)cc2=O)C(CC)(CC)C1=O gave an IC50 of 15.7 µM (HepG2; cell growth, SRB).
With CC1=C(C)C(=O)OC(C(C)(O)C2CCC3C4CC5OC56C(O)C=CC(=O)C6(C)C4CC(O)C32C)C1 (centres unmarked) the IC50 was 9.71 µM (bone marrow cells).
For Oc1cccc(-c2cccc(O)n2)n1.[Cl-].[Cl-].[Ru+2].c1cnc2c(c1)ccc1cccnc12.c1cnc2c(c1)ccc1cccnc12, the IC50 was 1440 µM (HeLa; cell viability; dark).
Cc1ccc2nc(SCC(=O)N/N=C3\C(=O)Nc4ccc([N+](=O)[O-])cc43)n(-c3ccccc3)c(=O)c2c1 gave an IC50 of 10 µM (colorectal and breast cancer lines; cell growth; average over cell lines).
Cc1ccc2nc(SCc3cn(-c4cccc(C(=O)O)c4)nn3)n(Cc3ccccc3)c(=O)c2c1 has an IC50 of 4.47 µM (HCT-116).
CC(C)[C@H]1CC[C@]2(C)C(=O)CCC(=O)C=C12 has an IC50 of 11.8 ± 0.23 µM (synovial cells; cell growth).
CNC(=O)N[C@]1(C)CCC[C@@]2(C)C3CC[C@@]4(C)C[C@]3(CCC21)CC4=O (single isomer, unassigned) gave an IC50 of 7.89 µg/mL (HBV-transfected cells; HBsAg secretion).
O=C1NCC(Cc2ccccc2)N(CC2CCCN2CC(CC2CCCCC2)N2CC(Cc3ccc(O)cc3)N(CCc3ccccc3)C(=O)C2=O)C1=O (centres unmarked) gave an IC50 of greater than 100 µM (CHO-K1; viability).
The IC50 of CCN(CC)c1ccc2c(c1)Oc1cc(N(CC)CC)ccc1C21c2ccccc2C(=O)N1N=Cc1ccnc(-c2cc(C)ccn2)c1.Cc1c(C)c(-c2ccc(-c3ccccc3)cc2)[c-](C)c1C.F[P-](F)(F)(F)(F)F.[Cl-].[Ir+3] is reported as 7.2 ± 0.6 µM (BEAS-2B; concentration not given).
The IC50 of CC1=C(CO)C(=O)O[C@@H]([C@@H](C)[C@H]2CC[C@H]3[C@@H]4C[C@H]5O[C@]56[C@@H](O)C=CC(=O)[C@]6(CO)[C@H]4CC[C@]23C)C1 is reported as 2.22 µM (Hs-578T; cell growth).
O=C1OCC2=C1C(c1cccc([N+](=O)[O-])c1)C1=C(N2)C(=O)c2ccccc2C1=O (centres unmarked) gave an IC50 of 2.19 ± 0.02 µM (MCF7 cells; cell growth).
COc1cc(N2CCN(C(=O)CCOCCOCCOCCNC(=O)CN)CC2)ccc1Nc1ncc(Cl)c(Nc2ccccc2P(C)(C)=O)n1 has an IC50 of 0.84 µM (H3122; cell growth).

Excerpt of the above:
For Oc1cccc(-c2cccc(O)n2)n1.[Cl-].[Cl-].[Ru+2].c1cnc2c(c1)ccc1cccnc12.c1cnc2c(c1)ccc1cccnc12, the IC50 was 1440 µM (HeLa; cell viability; dark).
Cc1ccc2nc(SCC(=O)N/N=C3\C(=O)Nc4ccc([N+](=O)[O-])cc43)n(-c3ccccc3)c(=O)c2c1 gave an IC50 of 10 µM (colorectal and breast cancer lines; cell growth; average over cell lines).
Cc1ccc2nc(SCc3cn(-c4cccc(C(=O)O)c4)nn3)n(Cc3ccccc3)c(=O)c2c1 has an IC50 of 4.47 µM (HCT-116).
